Measured values pooled from the literature.
Parts stem from different laboratories: compare values within a part only.

Study 1
Target: RNA binding protein fox-1 homolog 2, RRM domain, GST-SBP tag (RBFOX2, Homo sapiens, UniProt O43251-10, residues 100-194)
Technique: RNA Bind-n-Seq
Molecule type: RNA
Matrix: in vitro
Tested at: 365 nM
Setting: natural RNA segment, single round, ends assumed
Baseline: no-protein control
Reading: higher = stronger binding
Shared flanks, not repeated: GGGAGUUCUACAGUCCGACGAUC … UGGAAUUCUCGGGUGCCAA
Target sequence (chain): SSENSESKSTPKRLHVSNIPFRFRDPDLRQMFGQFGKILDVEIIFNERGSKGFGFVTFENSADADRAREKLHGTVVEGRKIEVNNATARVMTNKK
Oligonucleotide	RBNS enrichment (R)
AGACCAGACUCUUGCUUCUGAUCUUCCUUCAGCCCUCAGUGUGGGAAUAAAUUAAGUUUCUCAACAUACACAUUUUAGCUGGUCAAUGACUAAAACAUUUUUUCAGUGGA	0.283
CUGGGACGCUGUACGCAAUUCAGUGGUCUAGUCCUUUAUACCGACUCAGAUUCCUUAAGCAUGCAGAGUCACUCGAAUGAAAAAACAUACUCGACCUCUCCCUAAAAAGA	4.62
AGCUGUCUAAGGUCUCCCGAGGCCUGCUGGUGGUAAAGAAACUGACCUUUUAGGCAGUUUUUCUGCAUUGAUUUCAUGAAAGAAGCUAUACAUUAGCUAAUACUAACCAC	0.578
GGAUUGGACACAUACACAGCAUGUUCUUUCCAGCUCCUUGUCACCGAGAGAUAGAAAAUCUUUAUCUGUCCUUCUUGCUCCCUGACAUUAAUAAAUUUUUCUGAAGUCUC	13
GCCUUCACAGAAUGAUGGCACCUUCCUAAACCCUCAUGGGUGGUGUCUGAGAGGCGUGAAGGGCCUGGAGCCACUCUGCUAGAAGAGACCAAUAAAGGGCAGGUGUGGAA	1.76
ACAUCCUGAUUUCACUGCCUCAGAUGUGCCUGGCCACAAAGCACUCUGAACUAAUUCCUAAAGAGAAGCAACAAUAUGUGUAUGUGGGGGGGUUGAUCACAUACAUGUAC	0.833
AAAGACCUCUCGCCUCUACGUGGCACCUGGAAUUGGGGCGCACAGGGAGGGGCCGAUGCUGCCACCACCCAGCCUUCUCUUUAUUUUCAGUGCUUUUUGUUUGGCCUCCC	0.216
CGACAAUGGAUUUUUAACCAAGACAUUUUUGUUUUUGGAAAAAAAAAAAAAAUCAAAUGCAGUGACUAUUUUAUAUGGACAUGUGUCUUGAUUAUAUCUAUUAAGUGUGC	0.457
UUUACCUCAGAAGCAGUGACAGCCGCAGAAACCACAGAGGCGCUCCGCGCUGAAGAACUUACCGAAGCAUCAGGGGCAGAAGAGACCACAGACAUGGUGUCUGCAGUUUC	0.229
ACAAGCCAGCUGGCUUAUGCUGGUUCUCAGCUGUUUAAAAAAAAAAAAAAAAAGGAAUAGAAACAGUUUCAACCAGAUUGUCCUAUUCCCCCUGUUCCAUUCCCCUCUUC	0.35
GGGAAGAAAGCAAGGGACAAAGAACUGCAAGGGGCCAAAGCCAAAGAUCUAUCCGAGUGCUUCCUUCAACUGACCAUAUGCUUCUUCCUCGUGUCUGCCUGCGGGCUCCU	0.461
AAGACAAGUGAAACUGGGUGCAAGCUAAAAUUUUUAAAUGGUGUGGAGACUCGAAUGAUACCAAGAUAAUACAGAUAUUAUUAAGAAUUUUUUUGUGUUGAGGUGAUGUA	1.61

Study 2
Target: Transcription factor Sp1 (SP1, Homo sapiens, UniProt P08047, residues 1-785, full length assumed)
Chain of UniProt P08047 (whole entry, looked up): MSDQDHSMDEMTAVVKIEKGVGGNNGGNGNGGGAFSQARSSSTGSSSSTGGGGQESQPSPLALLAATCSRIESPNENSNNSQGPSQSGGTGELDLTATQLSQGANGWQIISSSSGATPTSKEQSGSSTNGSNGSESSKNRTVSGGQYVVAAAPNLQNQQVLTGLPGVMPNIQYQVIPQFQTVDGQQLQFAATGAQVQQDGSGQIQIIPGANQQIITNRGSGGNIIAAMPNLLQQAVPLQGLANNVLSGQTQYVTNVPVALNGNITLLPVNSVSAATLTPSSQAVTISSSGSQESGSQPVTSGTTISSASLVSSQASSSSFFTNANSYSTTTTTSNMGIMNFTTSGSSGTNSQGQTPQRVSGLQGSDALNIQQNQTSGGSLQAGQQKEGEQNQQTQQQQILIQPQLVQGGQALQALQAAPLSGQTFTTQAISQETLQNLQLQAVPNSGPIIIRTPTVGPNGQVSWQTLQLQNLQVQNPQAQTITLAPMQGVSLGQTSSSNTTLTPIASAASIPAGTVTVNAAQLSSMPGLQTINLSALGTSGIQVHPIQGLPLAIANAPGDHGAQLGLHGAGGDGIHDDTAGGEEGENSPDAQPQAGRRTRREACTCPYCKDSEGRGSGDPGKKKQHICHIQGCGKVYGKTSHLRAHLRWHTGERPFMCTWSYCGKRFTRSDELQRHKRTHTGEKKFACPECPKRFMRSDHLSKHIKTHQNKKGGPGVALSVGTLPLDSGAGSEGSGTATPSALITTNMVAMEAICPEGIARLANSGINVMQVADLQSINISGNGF
Technique: protein-binding microarray
Molecule type: double-stranded DNA, one strand shown
Matrix: in vitro
Tested at: not given
Setting: k-mer, scored over probes, only values ≥0.25
Reading: higher = stronger binding
Oligonucleotide	E-score
ATAATACA	0.295
TGTTAACA	0.279
CATAGGGG	0.294
ATACGGTA	0.253
CGACATCA	0.254
CGCCCACC	0.491
CCTTTACG	0.277
GCGTATAC	0.264
AACCCCAC	0.35
GATCCCCA	0.262
CTCCCCCC	0.322
CCCCACAA	0.325
CACCCCGC	0.321
ACCCCTCC	0.471
AACGCCCA	0.425
ACTATATA	0.281
CCCCGCAC	0.266
GGCGTGGA	0.302
CCACGCCC	0.482

Study 3
Target: Sal-like protein 4, full length isoform B (SALL4, Homo sapiens, UniProt Q9UJQ4-2, residues 1-616)
Technique: universal PBM
Molecule type: double-stranded DNA, one strand shown
Matrix: in vitro
Tested at: not given
Setting: 8-mer, flanks averaged, mean of replicates
Reading: higher = stronger binding
Target sequence (chain): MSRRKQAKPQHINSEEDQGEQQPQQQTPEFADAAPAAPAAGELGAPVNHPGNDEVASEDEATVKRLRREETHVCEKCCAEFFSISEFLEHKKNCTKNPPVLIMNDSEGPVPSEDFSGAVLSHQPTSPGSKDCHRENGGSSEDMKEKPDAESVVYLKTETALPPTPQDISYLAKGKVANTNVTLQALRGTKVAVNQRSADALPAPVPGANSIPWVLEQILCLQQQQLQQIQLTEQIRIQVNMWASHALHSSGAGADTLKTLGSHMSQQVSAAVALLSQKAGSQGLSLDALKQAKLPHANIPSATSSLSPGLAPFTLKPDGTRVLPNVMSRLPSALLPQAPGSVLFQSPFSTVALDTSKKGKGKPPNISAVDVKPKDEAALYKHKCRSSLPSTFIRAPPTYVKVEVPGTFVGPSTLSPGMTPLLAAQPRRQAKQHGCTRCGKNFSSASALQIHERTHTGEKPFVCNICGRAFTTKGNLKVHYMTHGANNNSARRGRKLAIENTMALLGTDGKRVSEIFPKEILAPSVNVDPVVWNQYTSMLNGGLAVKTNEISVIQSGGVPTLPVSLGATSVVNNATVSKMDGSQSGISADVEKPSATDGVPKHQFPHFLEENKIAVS
Oligonucleotide	E-score
GTATTAGA	0.24
GTAAGGTA	0.193
GCCGCGGC	-0.226
AAAAACTT	0.361
ACAAACGT	0.013
GTTTAGCA	0.0302
TGCTTCCA	-0.0407
CCCGAGTC	-0.187
GCCCGGGA	-0.393
ACCCTACG	-0.0839
AATAACTA	0.336
CGTTTGTA	0.112
GCGTTGAC	-0.192
AAGTCGCT	-0.0844
CACAGTCA	0.0442
GGCTTGCA	-0.154
ACGCGCGC	-0.194
AAGAAATC	0.0753
GGGGCCCC	-0.393
AAACAAGC	-0.0161
ATCCTCAG	-0.053
CGTGACGA	-0.0851

Study 4
Target: Fragile X messenger ribonucleoprotein 1, C-terminal low-complexity region (Fmr1, Mus musculus, UniProt P35922)
Technique: RNA Bind-n-Seq
Molecule type: RNA
Matrix: in vitro
Tested at: 200 nM
Setting: whole 134-nt RNA, ends assumed
Together with: 150 mM LiCl
Baseline: input library
Reading: higher = stronger binding
Each molecule: 7-deaza-guanosine replaces G
Shared flanks, not repeated: GGGAGUUCUACAGUCCGACGAUC … UGGAAUUCUCGGGUGUCAAGG
Oligonucleotide	log2 enrichment
UGGGAGGUGGAUUUUGUUUAUUUUUUUAGCUCAUUUCCAGGGGUGGGAAUUUUUUUUUAAUAUGUGUCAUGAAUAAAGUUGUUUCUGAAA	-0.163
AAGUCCUGUGCUACACAUCGUAUGUACCGAAUCGGGUUUUGGGGUUUUGGUUUUGGGAAAGUAUUAUGUUACGCCGUUCGGAUCUGCACU	-1.47
AAGUCCUGUGCUACACAUCGUAUGUACCGAAUCGGGGAAAGGGAAAGGGGAAAGGGAAAGUAUUAUGUUACGCCGUUCGGAUCUGCACUU	0.178
UCAAGUCCUGUGCUACACAUCGUAUGUACCGAAUCGGUUUUUGGAAAGGUUUGGAAAGUAUUAUGUUACGCCGUUCGGAUCUGCACUUCC	-2.12
CCUGUGCUACACAUCGUAUGUACCGAAUCGGGGAAAAAAAGGGGUUUUUGGGGAAAGGGGAAAGUAUUAUGUUACGCCGUUCGGAUCUGC	-0.541
ACCAUGCAGGUGGGCAUCUUUGGGAAGUGGGGCAAGGGGGGGAUAAAAAGGGGGGUAACACUUUGGGAACAGGUGGUCCCAGGUCGUUUC	0.984
UCCUGUGCUACACAUCGUAUGUACCGAAUCGGGGAAAAAGGAAAAAGGGGAAAAAGGGGAAAGUAUUAUGUUACGCCGUUCGGAUCUGCA	-0.545
CAAGUCCUGUGCUACACAUCGUAUGUACCGAAUCGGGGAGGGGUGGGGUUUGGGGAAAGUAUUAUGUUACGCCGUUCGGAUCUGCACUUC	-0.564
CCUGUGCUACACAUCGUAUGUACCGAAUCAAACCCCCCCAAACCCCCCCAAACCCCCAAAAAAGUAUUAUGUUACGCCGUUCGGAUCUGC	1.03
AGUCCUGUGCUACACAUCGUAUGUACCGAAUCGGGGAAAAAGGGGUGGGGAAAGGGGAAAGUAUUAUGUUACGCCGUUCGGAUCUGCACU	-0.256
AAGUCCUGUGCUACACAUCGUAUGUACCGAAUCGGGUUUGGGUUUGGGUUUUUGGGAAAGUAUUAUGUUACGCCGUUCGGAUCUGCACUU	-1.62

Study 5
Target: Interferon regulatory factor 3, full length, phosphomimetic (IRF3, Homo sapiens, UniProt Q14653, residues 1-427, S386D/S396D/S398D/S402D/T404D/S405D)
Chain of UniProt Q14653 (whole entry, unmodified, looked up): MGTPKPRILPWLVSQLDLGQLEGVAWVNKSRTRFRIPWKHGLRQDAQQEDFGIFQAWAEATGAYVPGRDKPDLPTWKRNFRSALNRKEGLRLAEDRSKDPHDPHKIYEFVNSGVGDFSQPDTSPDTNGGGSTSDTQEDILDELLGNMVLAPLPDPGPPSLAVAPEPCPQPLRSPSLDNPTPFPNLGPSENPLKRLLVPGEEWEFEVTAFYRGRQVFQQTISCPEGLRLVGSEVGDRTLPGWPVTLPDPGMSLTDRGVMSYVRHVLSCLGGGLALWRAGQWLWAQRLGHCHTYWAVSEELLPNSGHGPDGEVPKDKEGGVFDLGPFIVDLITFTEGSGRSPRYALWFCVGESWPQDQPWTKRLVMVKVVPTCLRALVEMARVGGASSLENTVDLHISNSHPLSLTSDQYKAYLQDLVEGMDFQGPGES
Technique: protein-binding microarray
Molecule type: double-stranded DNA, one strand shown
Matrix: in vitro
Tested at: 2540 nM top
Setting: 60-bp whole probe
Together with: salmon DNA 0.4 mg/ml
Baseline: random background probes
Reading: higher = stronger binding
Shared flanks, not repeated: GCCTAGCAC … GTCTTGATTCGCTTGACGCTGCTG
Oligonucleotide	fitted relative affinity
TCATTTATCAATCATTTTACTGTGCTA	1.63 z-score
TTAGGTCTCCTACTGCCTTAGTGCTAG	0.897 z-score
TCAAATCTCAGCCTCCGACTGTGCTAG	0.002 z-score
TCACTCGTCTCTATCAAACTGTGCTAG	0.175 z-score
GAGGGTATCCTACTGCTGACGTGCTAG	1.2 z-score
TTAGGTACCCTTATCCTTTAGTGCTAG	2.56 z-score
TTAGTTTTCGGTTCCGGTTAGTGCTAG	7.78 z-score
GGACAGTAATGGAGGTATAAGTGCTAG	-0.229 z-score
TTGGGACTGGGTCTCGGTTAGTGCTAG	-1.09 z-score
TGGAGCCTAAGGTTTAGGCTCGTGCTA	-0.595 z-score
GACGATTACGGGTTTCGAGACGTGCTA	0.744 z-score
GACGGTATCGGTTTCGGGTCGTGCTAG	7.33 z-score
GACGGTATCCTTATCCGGACGTGCTAG	5.69 z-score
TTAGGTATCGGTTTCTGTTAGTGCTAG	6.97 z-score
TTAGGTTTCGGACTGGGGTAGTGCTAG	4.08 z-score
TCATCCTTCTGACATCAAACTGTGCTA	1.19 z-score
GACGAACTGAGTCTCCAGACGTGCTAG	-0.00488 z-score
TTAGGACTGCGACTGGGTTAGTGCTAG	-0.871 z-score
TTAGGACAGGACTATCGGTTAGTGCTA	-0.111 z-score
TCAAGCTTCTTTTTTATACTGTGCTAG	0.427 z-score
GACGGACTGGGGTTTCGGAACGTGCTA	2.69 z-score
TTGTGTTGCTGTTTGAGGAAGTGCTAG	2.66 z-score
GACGAACTGGGGTACCGAGACGTGCTA	-0.262 z-score
TTAGGTATCGACAATCGGTTAGTGCTA	0.0576 z-score
TTAGGACGGCTACTGCTTTAGTGCTAG	-0.903 z-score

Study 6
Target: Histone acetyltransferase KAT6A, both winged helices, GST fusion (KAT6A, Homo sapiens, UniProt Q92794, residues 1-181)
Technique: protein binding microarray
Molecule type: double-stranded DNA, one strand shown
Matrix: in vitro
Tested at: not given
Setting: 8-mer, flanks averaged, mean of 2 arrays, mostly near background
Baseline: not given
Reading: higher = stronger binding
Construct (chain): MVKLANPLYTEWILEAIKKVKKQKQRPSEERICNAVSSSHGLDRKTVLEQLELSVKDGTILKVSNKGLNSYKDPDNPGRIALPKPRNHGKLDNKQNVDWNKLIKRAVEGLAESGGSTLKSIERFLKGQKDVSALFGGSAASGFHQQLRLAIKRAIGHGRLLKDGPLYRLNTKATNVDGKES
Oligonucleotide	E-score
CATCTTTA	-0.0221
CGCCATAA	0.0749
ATGTGCGC	0.214
CCGGTTAG	0.17
ACCCATTG	-0.0773
CGAGCGAC	0.0651
CGGACTCA	0.2
CGAAAAGC	0.111
CAAGATTC	-0.145
TCCAAAAA	-0.171
AAACCACA	-0.0737
GGGGCACA	-0.149
CGTACCTC	-0.00982
AAATCTGA	0.0375
GGTAGAAC	-0.107
CGATTGAG	-0.0283
GAAGCCAC	-0.0825
CGAAAGCC	0.0283
GCCTTGGA	-0.118
AGAACCGG	0.218
ATTGCAGA	-0.0931
GTGTTTTA	0.161
